Experimental data gathered from unrelated publications.
Lines come from different studies, so protocols differ. ± marks the error that the study gave.
Method: steady-state kinetics
B1: Tcur_2987 Y332F (Thermomonospora curvata, UniProt D1A807); chain ACSEERAAGARPSATQTTGTATEPFHGPHQAGIATPPQAHAVFLGLDLRKGTGRKELGRLMRLLTDDARRLTQGRPALADPEPDLAPLPSRLTFTFGFGPGLFKAAGLEKQRPEGLRPLPPFKVDRLEDRWSGGDLLVQICCDDPITLAHALRMTVKDARAFTRVRWVQRGFRRSPGVQSSGATQRNLMGQLDGTVNPVPGTADFDQAVWVQDGPEWLRGGTTLVLRRIRMELEKWDEADPAGKEFAVGRRLTSGAPLTGRHEHDEPDFDAVDSAGFPVIAENAHIRLAHVDSPRLRMLRRPYNFDEGLTADGRSDAGLLFAAYQADIDRQFIPVQRRLDEGGDLLNLWTTPIGSAVFAIPPGCDENGWIGQGLLG
B2: enzyme (Comamonas testosteroni, UniProt B7WQT1); chain MMTHEENELLCRVEGDAPMGRLMRRHWTPICLVEEVGEPDGTPVKARAFGEDLVVFRDSEGRVGVMDEYCPHRRASLVYGRNEEGGLRCLYHGWKMDVDGNVLEMASEPAASGMVDKVKHTAYPTQEWAGMVWAYMGPKETMPEFLPPAWAPTADTRVSIAKVLLPCNWAQILEGAIDSAHSSSLHSSDMVPARVDGAKATDKTWLRPSTDKAPRMQVQRTGYGFRYAALRRPLSNAAENDYVRSTVFVAPATALIPPNNLYNVANINVPMDDTNTAFYFIAWGHPSQTPETETWRKFLRQTVGVDLDQNYRPLRNEANKFWQDRNAMKAGNFTGITGFPNQDVAMWLTMGPIADRTHDRLGASDLAIVEFRKQMLDAVKAFEQGAPAIGTGVEAATPTVCSFQAIVPKTTDWRTYDAHYVWLDGQDRPEFEPSYSVKS
B3: BaiA2 (Clostridium scindens, UniProt P19337); chain MNLVQDKVTIITGGTRGIGFAAAKIFIDNGAKVSIFGETQEEVDTALAQLKELYPEEEVLGFAPDLTSRDAVMAAVGQVAQKYGRLDVMINNAGITSNNVFSRVSEEEFKHIMDINVTGVFNGAWCAYQCMKDAKKGVIINTASVTGIFGSLSGVGYPASKASVIGLTHGLGREIIRKNIRVVGVAPGVVNTDMTNGNPPEIMEGYLKALPMKRMLEPEEIANVYLFLASDLASGITATTVSVDGAYRP
B4: enzyme A178R/D177A/M179S/P184R (Levilactobacillus brevis, UniProt Q03Q85); chain MKVTVVGCTHAGTFAIKQILAEHPDAEVTVYERNDVISFLSCGIALYLGGKVADPQGLFYSSPEELQKLGANVQMNHNVLAIDPDQKTVTVEDLTNHAQTTESYDKLVMTSGSWPIVPKIPGIDSDRVKLCKNWAHAQALIEDAKEAKRITVIGAGYIGAELAEAYSTTGHDVTLIARSARVMRKYFDADFTDVIEQDYRDHGVQLALGETVESFTDSATGLTIKTDKNSYETDLAILCIGFRPNTDLLKGKVDMAPNGAIITDDYMRSSNPDIFAAGDSAAVHYNPTHQNAYIPLATNAVRQGILVGKNLVKPTVKYMGTQSSSGLALYDRTIVSTGLTLAAAKQQGLNAEQVIVEDNYRPEFMPSTEPVLMSLVFDPDTHRILGGALMSKYDVSQSANTLSVCIQNENTIDDLAMVDMLFQPNFDRPFNYLNILAQAAQAKVAQSVNA
B5: enzyme (Acinetobacter baumannii, UniProt D0CBC8); chain MALVLDGRALAKQIEENLLVRVEALKAKTGRTPILATILVGDDGASATYVRMKGNACRRVGMDSLKIELPQETTTEQLLAEIEKLNANPDVHGILLQHPVPAQIDERACFDAISLAKDVDGVTCLGFGRMAMGEAAYGSATPAGIMTILKENNIEIAGKHAVVVGRSAILGKPMAMMLLQANATVTICHSRTQNLPELVKQADIIVGAVGKAELIQKDWIKQGAVVVDAGFHPRDGGGVGDIQLQGIEEIASAYTPVPGGVGPMTITTLIRQTVEAAEKALG
B6: SULT1A1 I89A (Homo sapiens, UniProt P50225); chain MELIQDTSRPPLEYVKGVPLIKYFAEALGPLQSFQARPDDLLISTYPKSGTTWVSQILDMIYQGGDLEKCHRAPIFMRVPFLEFKAPGAPSGMETLKDTPAPRLLKTHLPLALLPQTLLDQKVKVVYVARNAKDVAVSYYHFYHMAKVHPEPGTWDSFLEKFMVGEVSYGSWYQHVQEWWELSRTHPVLYLFYEDMKENPKREIQKILEFVGRSLPEETVDFVVQHTSFKEMKKNPMTNYTTVPQEFMDHSISPFMRKGMAGDWKTTFTVAQNERFDADYAEKMAGCSLSFRSEL
B7: ltaE H126F/H83F (Escherichia coli, UniProt P75823); chain MIDLRSDTVTRPSRAMLEAMMAAPVGDDVYGDDPTVNALQDYAAELSGKEAAIFLPTGTQANLVALLSHCERGEEYIVGQAAFNYLFEAGGAAVLGSIQPQPIDAAADGTLPLDKVAMKIKPDDIFFARTKLLSLENTHNGKVLPREYLKEAWEFTRERNLALHVDGARIFNAVVAYGCELKEITQYCDSFTICLSKGLGTPVGSLLVGNRDYIKRAIRWRKMTGGGMRQSGILAAAGIYALKNNVARLQEDHDNAAWMAEQLREAGADVMRQDTNMLFVRVGEENAAALGEYMKARNVLINASPIVRLVTHLDVSREQLAEVAAHWRAFLAR
B8: FDC1 (Saccharomyces cerevisiae, UniProt Q03034); chain MRKLNPALEFRDFIQVLKDEDDLIEITEEIDPNLEVGAIMRKAYESHLPAPLFKNLKGASKDLFSILGCPAGLRSKEKGDHGRIAHHLGLDPKTTIKEIIDYLLECKEKEPLPPITVPVSSAPCKTHILSEEKIHLQSLPTPYLHVSDGGKYLQTYGMWILQTPDKKWTNWSIARGMVVDDKHITGLVIKPQHIRQIADSWAAIGKANEIPFALCFGVPPAAILVSSMPIPEGVSESDYVGAILGESVPVVKCETNDLMVPATSEMVFEGTLSLTDTHLEGPFGEMHGYVFKSQGHPCPLYTVKAMSYRDNAILPVSNPGLCTDETHTLIGSLVATEAKELAIESGLPILDAFMPYEAQALWLILKVDLKGLQALKTTPEEFCKKVGDIYFRTKVGFIVHEIILVADDIDIFNFKEVIWAYVTRHTPVADQMAFDDVTSFPLAPFVSQSSRSKTMKGGKCVTNCIFRQQYERSFDYITCNFEKGYPKGLVDKVNENWKRYGYK
B9: Paox H64N (Mus musculus, UniProt Q8C0L6); chain MAFPGPRVLVVGSGIAGLGAAQKLCSHRAAPHLRVLEATASAGGRIRSERCFGGVVELGAHWINGPSQDNPVFQLAAEFGLLGEKELSEENQLVDTGGHVALPSMIWSSSGTSVSLELMTEMARLFYGLIERTREFLNESETPMASVGEFLKKEISQQVASWTEDDEDTRKRKLAILNTFFNIECCVSGTHSMDLVALAPFGEYTVLPGLDCILAGGYQGLTDRILASLPKDTVAFDKPVKTIHWNGSFQEAAFPGETFPVLVECEDGARLPAHHVIVTVPLGFLKEHQDTFFEPPLPAKKAEAIKKLGFGTNNKIFLEFEEPFWEPDCQFIQVVWEDTSPLQDTALSLQDTWFKKLIGFLVQPSFESSHVLCGFIAGLESEFMETLSDEEVLLSLTQVLRRVTGNPQLPAAKSVRRSQWHSAPYTRGSYSYVAVGSTGDDLDLMAQPLPEDGTGTQLQVLFAGEATHRTFYSTTHGALLSGWREADRLVSLWDSQVEQSRPRL
B10: PRODH2 157-515 (Homo sapiens, UniProt Q9UF12); chain YGQFVAGETAEEVKGCVQQLRTLSLRPLLAVPTEEEPDSAAKSGEAWYEGNLGAMLRCVDLSRGLLEPPSLAEASLMQLKVTALTSTRLCKELASWVRRPGASLELSPERLAEAMDSGQNLQVSCLNAEQNQHLRASLSRLHRVAQYARAQHVRLLVDAEYTSLNPALSLLVAALAVRWNSPGEGGPWVWNTYQACLKDTFERLGRDAEAAHRAGLAFGVKLVRGAYLDKERAVAQLHGMEDPTQPDYEATSQSYSRCLELMLTHVARHGPMCHLMVASHNEESVRQATKRMWELGIPLDGTVCFGQLLGMCDHVSLALGQAGYVVYKSIPYGSLEEVIPYLIRRAQENRSVLQGARRE
Sequence of UniProt P14780 (whole entry, looked up): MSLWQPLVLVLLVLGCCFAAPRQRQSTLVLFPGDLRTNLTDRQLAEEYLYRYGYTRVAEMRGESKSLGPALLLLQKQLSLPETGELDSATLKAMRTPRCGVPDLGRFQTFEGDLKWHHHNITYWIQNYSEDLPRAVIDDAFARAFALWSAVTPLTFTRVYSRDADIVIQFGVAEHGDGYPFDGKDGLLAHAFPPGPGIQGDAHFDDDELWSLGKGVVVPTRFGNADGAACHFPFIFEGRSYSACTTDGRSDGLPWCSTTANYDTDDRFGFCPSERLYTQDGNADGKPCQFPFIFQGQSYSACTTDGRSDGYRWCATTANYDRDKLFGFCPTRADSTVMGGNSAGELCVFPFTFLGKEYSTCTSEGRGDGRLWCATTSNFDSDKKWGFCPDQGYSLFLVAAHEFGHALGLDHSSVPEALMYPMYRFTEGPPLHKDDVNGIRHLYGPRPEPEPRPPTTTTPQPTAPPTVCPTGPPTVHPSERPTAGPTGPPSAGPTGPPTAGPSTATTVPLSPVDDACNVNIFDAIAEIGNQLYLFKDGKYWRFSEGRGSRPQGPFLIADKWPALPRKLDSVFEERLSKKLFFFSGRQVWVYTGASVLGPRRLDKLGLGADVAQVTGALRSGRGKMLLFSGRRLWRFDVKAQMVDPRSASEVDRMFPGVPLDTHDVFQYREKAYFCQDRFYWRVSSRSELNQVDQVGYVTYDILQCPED
Sequence of UniProt Q29437 (whole entry, looked up): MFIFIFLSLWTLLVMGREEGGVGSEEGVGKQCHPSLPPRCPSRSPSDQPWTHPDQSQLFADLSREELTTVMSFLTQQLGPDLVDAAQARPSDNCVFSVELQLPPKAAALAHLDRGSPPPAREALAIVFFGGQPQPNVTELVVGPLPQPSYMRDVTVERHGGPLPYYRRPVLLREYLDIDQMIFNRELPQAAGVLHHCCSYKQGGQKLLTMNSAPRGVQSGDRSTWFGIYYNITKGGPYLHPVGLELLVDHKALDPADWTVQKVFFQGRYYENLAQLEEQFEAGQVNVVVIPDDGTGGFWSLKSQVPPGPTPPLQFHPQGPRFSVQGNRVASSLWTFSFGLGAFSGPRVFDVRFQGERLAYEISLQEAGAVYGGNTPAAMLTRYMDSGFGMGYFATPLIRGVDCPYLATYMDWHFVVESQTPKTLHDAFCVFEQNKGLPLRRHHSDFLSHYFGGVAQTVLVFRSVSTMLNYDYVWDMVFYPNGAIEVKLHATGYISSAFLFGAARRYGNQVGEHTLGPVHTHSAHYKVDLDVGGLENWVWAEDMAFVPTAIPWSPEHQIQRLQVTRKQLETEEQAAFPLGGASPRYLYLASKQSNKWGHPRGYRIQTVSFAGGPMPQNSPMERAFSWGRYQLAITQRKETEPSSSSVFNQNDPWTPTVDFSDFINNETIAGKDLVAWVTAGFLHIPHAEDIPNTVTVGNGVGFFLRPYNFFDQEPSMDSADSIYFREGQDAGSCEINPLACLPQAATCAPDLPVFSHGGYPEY

Substance	substrate	conditions	kcat/Km [M⁻¹ s⁻¹]
B1 (Tcur_2987 Y332F)	Nc1c(S(=O)(=O)O)cc(Nc2cccc(S(=O)(=O)CCOS(=O)(=O)O)c2)c2c1C(=O)c1ccccc1C2=O	pH 3, sigmoidal kinetics, with: H2O2 1 mM	2.5e+06
MMP9 (Homo sapiens, UniProt P14780)	CC(=O)N[C@@H](CCC(N)=O)C(=O)N1CCC[C@H]1C(=O)N[C@@H](CCC(N)=O)C(=O)NCC(=O)N[C@@H](CC(C)C)C(=O)N[C@@H](C)C(=O)N[C@@H](CCCCN)C(N)=O	–	21000
B2 (enzyme)	O=C(O)c1ccccc1C(=O)O	pH 8, 25 °C, apparent	583000 ± 87000
B3 (BaiA2)	NC(=O)c1ccc[n+]([C@@H]2O[C@H](COP(=O)(O)OP(=O)(O)OC[C@H]3O[C@@H](n4cnc5c(N)ncnc54)[C@H](O)[C@@H]3O)[C@@H](O)[C@H]2O)c1	pH 8.7, 37 °C, cofactor from expression host, cofactor varied	13200
B4 (enzyme A178R/D177A/M179S/P184R)	NC(=O)C1=CN([C@@H]2O[C@H](COP(=O)(O)OP(=O)(O)OC[C@H]3O[C@@H](n4cnc5c(N)ncnc54)[C@H](OP(=O)(O)O)[C@@H]3O)[C@@H](O)[C@H]2O)C=CC1	pH 7.5, 37 °C, per site	2.7e+07 ± 6e+06
B5 (enzyme)	Nc1nc2c(c(=O)[nH]1)N1CN(c3ccc(C(=O)N[C@@H](CCC(=O)O)C(=O)O)cc3)C[C@H]1CN2	pH 7.3, 27 °C	3.2e+06
Plasma amine oxidase (Bos taurus, UniProt Q29437)	CNCCOc1ccc2cc(CN)ccc2c1	pH 7.2, 30 °C	1.01e+06
B6 (SULT1A1 I89A)	C[C@]12CC[C@@H]3c4ccc(O)cc4CC[C@H]3[C@@H]1CC[C@@H]2O	pH 7.2, 25 °C, with: PAPS 0.060–1.5 µM	750000
B7 (ltaE H126F/H83F)	C[C@H](O)[C@H](N)C(=O)O	pH 7, 30 °C, potassium phosphate 20 mM, retro-aldol cleavage, with: PLP 500 µM	3.83
B8 (FDC1)	O=C(O)/C=C/c1ccc(O)cc1	pH 7, 25 °C, apparent kcat, incomplete cofactor occupancy, apparent	13600 ± 880
B9 (Paox H64N)	CC(=O)NCCCNCCCCNCCCN	pH 10, 30 °C	17000 ± 1000
B10 (PRODH2 157-515)	O=C(O)[C@@H]1C[C@@H](O)CN1	pH 7.5, 25 °C, with: O2	0.07 ± 0.02

A few entries again:
Substance	substrate	conditions	kcat/Km [M⁻¹ s⁻¹]
MMP9 (Homo sapiens, UniProt P14780)	CC(=O)N[C@@H](CCC(N)=O)C(=O)N1CCC[C@H]1C(=O)N[C@@H](CCC(N)=O)C(=O)NCC(=O)N[C@@H](CC(C)C)C(=O)N[C@@H](C)C(=O)N[C@@H](CCCCN)C(N)=O	–	21000
